Literature values as cited in several papers.
Protocols differ between the studies behind these lines. Numbers after ± are the reported error.
CYP3A4: Cytochrome P450 3A4 (CYP3A4, Homo sapiens, UniProt P08684)
Chain of UniProt P08684 (whole entry, looked up): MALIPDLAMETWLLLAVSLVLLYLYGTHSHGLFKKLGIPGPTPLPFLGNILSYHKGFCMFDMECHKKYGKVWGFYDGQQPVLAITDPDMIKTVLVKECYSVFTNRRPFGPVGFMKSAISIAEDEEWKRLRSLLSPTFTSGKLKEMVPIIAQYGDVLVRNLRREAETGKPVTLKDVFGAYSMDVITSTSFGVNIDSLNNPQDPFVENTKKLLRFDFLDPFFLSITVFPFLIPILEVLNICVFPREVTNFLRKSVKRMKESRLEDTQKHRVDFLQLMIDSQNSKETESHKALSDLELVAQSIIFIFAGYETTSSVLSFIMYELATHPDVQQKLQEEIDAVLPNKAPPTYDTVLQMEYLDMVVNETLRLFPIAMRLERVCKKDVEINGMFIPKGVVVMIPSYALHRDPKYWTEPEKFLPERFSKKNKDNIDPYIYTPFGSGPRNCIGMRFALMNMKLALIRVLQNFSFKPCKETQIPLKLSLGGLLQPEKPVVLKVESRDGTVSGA
Chain of UniProt Q9UBF8 (whole entry, looked up): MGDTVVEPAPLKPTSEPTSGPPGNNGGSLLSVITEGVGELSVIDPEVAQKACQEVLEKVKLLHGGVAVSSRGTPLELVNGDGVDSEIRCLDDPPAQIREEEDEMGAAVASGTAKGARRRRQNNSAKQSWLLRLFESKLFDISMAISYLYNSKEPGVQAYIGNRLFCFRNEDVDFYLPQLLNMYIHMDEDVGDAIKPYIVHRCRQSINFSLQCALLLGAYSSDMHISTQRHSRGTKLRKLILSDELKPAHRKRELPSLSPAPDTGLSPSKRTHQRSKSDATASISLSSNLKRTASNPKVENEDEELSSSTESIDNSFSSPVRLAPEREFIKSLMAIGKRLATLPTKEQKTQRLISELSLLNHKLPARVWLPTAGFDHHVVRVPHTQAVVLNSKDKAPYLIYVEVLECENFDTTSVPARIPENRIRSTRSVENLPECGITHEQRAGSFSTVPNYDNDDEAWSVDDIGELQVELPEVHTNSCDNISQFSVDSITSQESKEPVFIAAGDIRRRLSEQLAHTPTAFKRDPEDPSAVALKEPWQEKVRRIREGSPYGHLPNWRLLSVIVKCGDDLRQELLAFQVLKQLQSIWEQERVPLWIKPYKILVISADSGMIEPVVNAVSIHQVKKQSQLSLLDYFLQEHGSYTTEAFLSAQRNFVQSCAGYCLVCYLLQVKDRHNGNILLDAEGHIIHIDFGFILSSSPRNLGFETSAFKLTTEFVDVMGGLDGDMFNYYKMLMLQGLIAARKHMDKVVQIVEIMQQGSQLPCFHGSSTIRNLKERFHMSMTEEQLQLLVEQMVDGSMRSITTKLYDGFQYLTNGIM
Chain of UniProt P08183 (whole entry, looked up): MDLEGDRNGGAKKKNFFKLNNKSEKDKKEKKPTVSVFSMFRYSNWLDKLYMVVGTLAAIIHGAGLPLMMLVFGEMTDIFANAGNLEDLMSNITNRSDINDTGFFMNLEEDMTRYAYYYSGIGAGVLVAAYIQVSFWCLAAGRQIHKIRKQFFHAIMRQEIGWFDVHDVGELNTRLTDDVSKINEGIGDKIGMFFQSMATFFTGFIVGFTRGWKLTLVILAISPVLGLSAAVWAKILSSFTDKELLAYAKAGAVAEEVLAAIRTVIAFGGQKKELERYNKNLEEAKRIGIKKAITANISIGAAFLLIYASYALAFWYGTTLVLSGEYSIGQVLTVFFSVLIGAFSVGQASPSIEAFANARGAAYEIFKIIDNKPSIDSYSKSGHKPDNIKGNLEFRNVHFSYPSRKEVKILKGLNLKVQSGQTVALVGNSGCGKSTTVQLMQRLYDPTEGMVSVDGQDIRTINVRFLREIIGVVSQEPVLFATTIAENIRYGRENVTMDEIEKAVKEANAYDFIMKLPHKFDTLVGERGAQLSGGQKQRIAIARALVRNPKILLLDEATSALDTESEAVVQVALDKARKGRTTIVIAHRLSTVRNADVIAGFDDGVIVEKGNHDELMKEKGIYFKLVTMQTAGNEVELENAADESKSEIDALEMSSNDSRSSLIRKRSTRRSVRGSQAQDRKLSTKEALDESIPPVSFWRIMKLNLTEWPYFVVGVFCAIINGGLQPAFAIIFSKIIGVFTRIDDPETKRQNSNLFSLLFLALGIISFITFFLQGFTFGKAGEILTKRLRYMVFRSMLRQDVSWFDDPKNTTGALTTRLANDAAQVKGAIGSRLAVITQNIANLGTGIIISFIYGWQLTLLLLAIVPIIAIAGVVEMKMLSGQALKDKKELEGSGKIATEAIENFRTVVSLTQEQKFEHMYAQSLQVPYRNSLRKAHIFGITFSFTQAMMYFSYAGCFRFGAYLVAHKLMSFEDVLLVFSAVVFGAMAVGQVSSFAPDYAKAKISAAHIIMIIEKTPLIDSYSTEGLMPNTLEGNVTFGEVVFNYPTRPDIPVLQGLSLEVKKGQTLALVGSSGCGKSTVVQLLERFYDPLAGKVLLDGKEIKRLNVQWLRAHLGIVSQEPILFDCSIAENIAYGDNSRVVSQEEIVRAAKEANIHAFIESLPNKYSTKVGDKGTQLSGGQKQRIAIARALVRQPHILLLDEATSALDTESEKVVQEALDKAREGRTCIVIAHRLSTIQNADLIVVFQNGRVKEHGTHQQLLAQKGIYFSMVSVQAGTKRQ
Chain of UniProt Q9UNQ0 (whole entry, looked up): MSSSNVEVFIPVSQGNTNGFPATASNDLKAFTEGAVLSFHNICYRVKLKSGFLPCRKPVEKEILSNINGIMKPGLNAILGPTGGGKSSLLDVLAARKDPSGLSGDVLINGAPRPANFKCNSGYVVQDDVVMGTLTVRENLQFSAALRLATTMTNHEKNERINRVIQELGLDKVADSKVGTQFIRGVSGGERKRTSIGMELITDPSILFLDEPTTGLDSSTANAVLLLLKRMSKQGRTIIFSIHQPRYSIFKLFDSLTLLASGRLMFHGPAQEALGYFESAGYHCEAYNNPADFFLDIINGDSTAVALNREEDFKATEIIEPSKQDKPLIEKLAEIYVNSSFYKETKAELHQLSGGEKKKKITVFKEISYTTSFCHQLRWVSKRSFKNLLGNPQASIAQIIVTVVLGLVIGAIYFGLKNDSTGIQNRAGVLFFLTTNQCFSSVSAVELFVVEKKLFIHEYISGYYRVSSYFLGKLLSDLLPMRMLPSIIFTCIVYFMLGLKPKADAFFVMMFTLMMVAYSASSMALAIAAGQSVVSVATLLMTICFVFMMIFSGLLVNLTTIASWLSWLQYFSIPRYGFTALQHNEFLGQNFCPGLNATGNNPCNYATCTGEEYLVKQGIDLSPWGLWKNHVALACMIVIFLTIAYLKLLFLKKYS

| Compound | tested on | assay | test system | conditions | scale | endpoint | result |
| --- | --- | --- | --- | --- | --- | --- | --- |
| O=C(O)CC1CCN(C(=O)c2ccc(Cl)c(Cn3ccc4cc(C(F)(F)F)cc(Cl)c43)c2Cl)CC1 | ABCG2 (Homo sapiens, UniProt Q9UNQ0) | inhibitor | human | oral, 375 mg once daily | – | rosuvastatin AUCtau increase | 55% |
| CC(=O)Nc1ccc(O)cc1 | UGT2B15 | substrate | – | – | – | Km | 23000 µM |
| CO[C@H]1/C=C/O[C@@]2(C)Oc3c(C)c(O)c4c(O)c(c(/C=N/N5CCN(C)CC5)c(O)c4c3C2=O)NC(=O)/C(C)=C\C=C\[C@H](C)[C@H](O)[C@@H](C)[C@@H](O)[C@@H](C)[C@H](OC(C)=O)[C@@H]1C | OATP1B3 (SLCO1B3) OATP1B3 | – | – | literature geometric mean | – | IC50 | 1.48 µM |
| CN/C(=N/CCSCc1nc[nH]c1C)NC#N | ABCC4 | substrate | – | – | – | Km | 18.2 µM |
| N[C@@H]1c2cccnc2[C@H](OC(=O)N2CCC(n3c(=O)[nH]c4ncccc43)CC2)CC[C@H]1c1cccc(F)c1F | CYP2C19 (human) | – | human liver microsomes | – | – | IC50 | > 40 µM |
| COC[C@H]1C[C@@H](c2ncc(-c3ccc4c(c3)COc3cc5c(ccc6nc([C@@H]7CC[C@H](C)N7C(=O)[C@@H](NC(=O)OC)C(C)C)[nH]c65)cc3-4)[nH]2)N(C(=O)[C@H](NC(=O)OC)c2ccccc2)C1 | OATP1B3 (SLCO1B3) OATP1B3 | – | – | literature geometric mean | – | IC50 | 0.28 µM |
| COC(=O)[C@H](c1ccccc1Cl)N1CCc2sccc2C1 | OATP1B1 | – | – | – | – | Ki | 1.98 µM |
| CC(O)C(C)n1ncn(-c2ccc(N3CCN(c4ccc(OCC5COC(Cn6cncn6)(c6ccc(Cl)cc6Cl)O5)cc4)CC3)cc2)c1=O (stereo not shown) | CYP3A4 | substrate | – | – | – | kcat | 0.000333 s⁻¹ |
| C[C@]1(c2nc3c(C(N)=O)cccc3[nH]2)CCCN1 | OCT2 | transport, substrate | HEK293 expressing OCT2 | – | – | uptake clearance | 8.6 pmol/min/mg protein |
| C=CC(=O)Nc1cc(Nc2nccc(-c3cn(C)c4ccccc34)n2)c(OCC(F)(F)F)nc1N(C)CCN(C)C | CYP3A4 | enzyme induction | – | – | – | EC50 | 0.25 µM |
| Cc1ncc([N+](=O)[O-])n1CCO | CYP2A6 | substrate | – | – | – | Km | 289 µM |
| C#C[C@]1(O)CC[C@H]2[C@@H]3CCc4cc(O)ccc4[C@H]3CC[C@@]21C | UGT1A1 | substrate | human liver microsomes | – | – | Km | 19.2 µM |
| Cc1ccc(C)c(OCCCC(C)(C)C(=O)O)c1 | OATP1B3 (SLCO1B3) OATP1B3 | – | – | literature geometric mean | – | IC50 | 137 µM |
| O=c1[nH]ncn1-c1ccc(N2CCN(c3ccc(OCC4COC(Cn5cncn5)(c5ccc(Cl)cc5Cl)O4)cc3)CC2)cc1 (stereo not shown) | CYP3A4 | substrate | – | – | – | kcat | 0.001 s⁻¹ |
| C=CC(O)CO (stereo not shown) | CYP2E1 | substrate | pooled human liver microsomes | – | – | Km | ~1000 µM |
| CNC(C)C1CCC(N)C(OC2C(N)CC(N)C(OC3OCC(C)(O)C(NC)C3O)C2O)O1 (stereo not shown) | Klebsiella pneumoniae | – | clinical isolate RKI-No_68/16 | – | – | MIC | ≤ 0.5 mg/L |
| CC(O)c1cc(C(=O)N[C@@H](C)Cn2ccc(-c3ccc(C#N)c(Cl)c3)n2)[nH]n1 (stereo partly shown) | OATP1B1 | – | – | – | literature minimum | IC50 | 3.8 µM |
| C=C[C@@H]1C[C@]1(NC(=O)[C@@H]1C[C@@H]2CN1C(=O)[C@H](C(C)(C)C)NC(=O)O[C@@H]1C[C@H]1CCCCCc1nc3ccc(OC)cc3nc1O2)C(=O)NS(=O)(=O)C1CC1 | human P-glycoprotein | – | LLC-PK1 cells transfected with P-glycoprotein | 1 µM | reference: B-A over A-B Papp | efflux ratio | ~100 |
| O=C(O)C[C@H](O)C[C@H](O)/C=C/c1c(C2CC2)nc2ccccc2c1-c1ccc(F)cc1 | OATP1B3 | – | – | – | – | share of hepatic uptake clearance | 8% |
| CN(C)C(=N)N=C(N)N | MATE | – | healthy human | – | – | CLint | 300 mL/min |
| CCC(C)n1ncn(-c2ccc(N3CCN(c4ccc(OCC5COC(Cn6cncn6)(c6ccc(Cl)cc6Cl)O5)cc4)CC3)cc2)c1=O (stereo not shown) | human CYP1A2 | – | – | hydroxylation pathway | – | CLint | 1 µL/min/pmol |
| COC(=O)N[C@@H](C)CNc1nccc(-c2cn(C(C)C)nc2-c2cc(Cl)cc(NS(C)(=O)=O)c2F)n1 | CYP2C19 (human) | – | human | human ADME study | – | contribution to metabolism | 16% |
| COc1cc(N2CCC(N3CCN(C)CC3)CC2)ccc1Nc1ncc(Cl)c(Nc2ccccc2P(C)(C)=O)n1 | CYP3A (human) | drug interaction | human | 180 mg, with: rifampin 600 mg | reference: compound alone | Cmax decrease | 60% |

| Compound | tested on | assay | test system | conditions | scale | endpoint | result |
| --- | --- | --- | --- | --- | --- | --- | --- |
| C[C@H]1CN(C2COC2)CCN1c1ccc(Nc2cc(-c3ccnc(N4CCn5c(cc6c5CC(C)(C)C6)C4=O)c3CO)cn(C)c2=O)nc1 | OATP1B3 (SLCO1B3) OATP1B3 | – | – | literature geometric mean | – | IC50 | 7.15 µM |
| O=C1Nc2ccc(Cl)cc2[C@@](C#CC2CC2)(C(F)(F)F)O1 | 3A4 | – | – | Simcyp compound file | – | intrinsic clearance | 0.01 µL/min/pmol |
| Cc1ccc(C)c(OCCCC(C)(C)C(=O)O[C@@H]2O[C@H](C(=O)O)[C@@H](O)[C@H](O)[C@H]2O)c1 | OATP1B1 (human) | transport, inhibitor | – | lowest published value | – | Ki | 7.9 µM |
| C=C[C@@H]1C[C@]1(NC(=O)[C@@H]1C[C@@H]2CN1C(=O)[C@H](C(C)(C)C)NC(=O)O[C@@H]1C[C@H]1CCCCCc1nc3ccc(OC)cc3nc1O2)C(=O)NS(=O)(=O)C1CC1 | OATP1B3 (SLCO1B3) OATP1B1 | – | – | literature geometric mean | – | IC50 | 0.72 µM |
| COc1ccc2nc([S@+]([O-])Cc3ncc(C)c(OC)c3C)[nH]c2c1 | CYP3A | sulfone formation | – | in vitro | – | fraction of intrinsic clearance | 2% |
| CO[C@H]1C[C@@H]2CC[C@@H](C)[C@@](O)(O2)C(=O)C(=O)N2CCCC[C@H]2C(=O)O[C@H]([C@H](C)C[C@@H]2CC[C@@H](O)[C@H](OC)C2)CC(=O)[C@H](C)/C=C(\C)[C@@H](O)[C@@H](OC)C(=O)[C@H](C)C[C@H](C)/C=C/C=C/C=C/1C | recombinant human CYP3A4 | – | – | – | – | fraction unbound in microsomal incubation | 0.43 |
| Cc1oncc1C(=O)Nc1ccc(C(F)(F)F)cc1 | PXR | receptor activation, agonist, Tox21 HTS | – | – | – | AC50 | 14.8 µM |
| N#CCNC(=O)c1ccc(-c2ccnc(Nc3ccc(N4CCOCC4=O)cc3)n2)cc1 | CYP3A4/5 | inhibitor, in vitro | – | concentration not given | – | inhibition | no inhibition |
| Nc1cc(C(F)(F)F)c(-c2nc(N3CCOCC3)nc(N3CCOCC3)n2)cn1 | PI4KB (Homo sapiens, UniProt Q9UBF8) | enzyme activity | – | 10 µM | reference: untreated | remaining activity | 95% |
| CNCc1cn(S(=O)(=O)c2cccc(F)c2)c(-c2ccc(F)cc2F)c1OC | OCT2 | transporter uptake, inhibitor | – | – | – | IC50 | 80.2 µM |
| O=C(O)CN1CCNCCN(CC(=O)O)CCN(CC(=O)O)CC1 | protonation constant | – | – | 0.15 M NaCl | – | log KH3 | 4.43 |
| C[C@H]1COCCN1c1nc(-c2cnc(N)cc2C(F)F)nc(N2CCOCC2)n1 | K562 | – | – | – | – | GI50 | 1.06 µM |
| O=C(O)CN1CCN(CC(=O)O)CCN(CC(=O)O)CC1 | Cu(II) | – | – | stability constant | – | log K | 19.8 |
| CO[C@H]1/C=C/O[C@@]2(C)Oc3c(C)c(O)c4c(O)c(c(/C=N/N5CCN(C)CC5)c(O)c4c3C2=O)NC(=O)/C(C)=C\C=C\[C@H](C)[C@H](O)[C@@H](C)[C@@H](O)[C@@H](C)[C@H](OC(C)=O)[C@@H]1C | CYP2C8 human | enzyme induction, inducer, Simcyp model | – | – | – | EC50 | 0.3 µM |
| N#Cc1ccc(C(c2ccc(C#N)cc2)n2cncn2)cc1 | CYP2A6 (human) | inhibitor | – | – | – | Ki | 0.12 µM |
| CCC(C)n1ncn(-c2ccc(N3CCN(c4ccc(OCC5COC(Cn6cncn6)(c6ccc(Cl)cc6Cl)O5)cc4)CC3)cc2)c1=O (stereo not shown) | OATP1B3 (SLCO1B3) OATP1B1 | – | – | literature geometric mean | – | IC50 | > 20 µM |
| CC1(C)S[C@@H]2[C@H](NC(=O)[C@H](N)c3ccccc3)C(=O)N2[C@H]1C(=O)O | Klebsiella pneumoniae | – | clinical isolate RKI-No_544/13 | – | – | MIC | > 16 mg/L |
| CC(F)(F)c1cc(F)ccc1-c1sc2cc(O)ccc2c1Oc1ccc(/C=C/C(=O)O)cc1 | CYP3A4/5 | time-dependent inhibitor | – | – | – | kinact | 0.119 ± 0.0024 min⁻¹ |
| Cc1ccc(C)c(OCCCC(C)(C)C(=O)O[C@@H]2O[C@H](C(=O)O)[C@@H](O)[C@H](O)[C@H]2O)c1 | OATP1B1 | – | – | – | literature maximum | IC50 | 24.3 µM |
| CO[C@H]1/C=C/O[C@@]2(C)Oc3c(C)c(O)c4c(O)c(c(/C=N/N5CCN(C)CC5)c(O)c4c3C2=O)NC(=O)/C(C)=C\C=C\[C@H](C)[C@H](O)[C@@H](C)[C@@H](O)[C@@H](C)[C@H](OC(C)=O)[C@@H]1C | OATP1B1 (human) | substrate | – | – | – | Km | 1.5 µM |
| C[C@H]1O[C@@H](O[C@H]2[C@@H](O)C[C@H](O[C@H]3[C@@H](O)C[C@H](O[C@H]4CC[C@@]5(C)[C@H](CC[C@@H]6[C@@H]5C[C@@H](O)[C@]5(C)[C@@H](C7=CC(=O)OC7)CC[C@]65O)C4)O[C@@H]3C)O[C@@H]2C)C[C@H](O)[C@@H]1O | ABCB1 (Homo sapiens, UniProt P08183) | substrate | Caco-2 | – | – | efflux ratio | ~10 |
| O=C(O)CN(CCN(CC(=O)O)CC(=O)O)CC(=O)O | protonation constant | – | – | 0.15 M NaCl | – | log KH3 | 2.73 |
| Cc1c(C#N)cccc1[C@@H](C)Nc1nnc(C)c2cnc(N3CCOCC3)cc12 | MKN-74 | 3D cell viability | – | 14 d | – | IC50 | > 1 µM |

A few entries again:
| Compound | tested on | assay | test system | conditions | scale | endpoint | result |
| --- | --- | --- | --- | --- | --- | --- | --- |
| COc1ccc2nc([S@+]([O-])Cc3ncc(C)c(OC)c3C)[nH]c2c1 | CYP3A | sulfone formation | – | in vitro | – | fraction of intrinsic clearance | 2% |
| CO[C@H]1C[C@@H]2CC[C@@H](C)[C@@](O)(O2)C(=O)C(=O)N2CCCC[C@H]2C(=O)O[C@H]([C@H](C)C[C@@H]2CC[C@@H](O)[C@H](OC)C2)CC(=O)[C@H](C)/C=C(\C)[C@@H](O)[C@@H](OC)C(=O)[C@H](C)C[C@H](C)/C=C/C=C/C=C/1C | recombinant human CYP3A4 | – | – | – | – | fraction unbound in microsomal incubation | 0.43 |
| Cc1oncc1C(=O)Nc1ccc(C(F)(F)F)cc1 | PXR | receptor activation, agonist, Tox21 HTS | – | – | – | AC50 | 14.8 µM |
| N#CCNC(=O)c1ccc(-c2ccnc(Nc3ccc(N4CCOCC4=O)cc3)n2)cc1 | CYP3A4/5 | inhibitor, in vitro | – | concentration not given | – | inhibition | no inhibition |
| Nc1cc(C(F)(F)F)c(-c2nc(N3CCOCC3)nc(N3CCOCC3)n2)cn1 | PI4KB (Homo sapiens, UniProt Q9UBF8) | enzyme activity | – | 10 µM | reference: untreated | remaining activity | 95% |
